Results from different studies.
Each line is one published result; not all experiments were run side by side. ± gives the spread as reported.
Cell line: SK-MEL-28

Compound = CNS(=O)(=O)Nc1nccc(Cc2c(C)c3ccc(Oc4ncccc4F)cc3oc2=O)c1F; assay = cell viability; conditions = 7 days; quantity = IC50; value = 3.42 nM
Compound = Cc1cccc(-c2cccc(C)n2)n1.Cc1cccc(-c2cccc(C)n2)n1.F[P-](F)(F)(F)(F)F.F[P-](F)(F)(F)(F)F.[Ru+2].c1cc2ccc3ccc(-c4nc5c6cccnc6c6ncccc6c5[nH]4)c4ccc(c1)c2c34; assay = cell viability; conditions = normoxia, with: green light 523 nm, 100 J/cm2; quantity = EC50; value = 3200 ± 100 nM
Compound = CC(C)(C)c1cc(-c2ccc3cccnc3n2)nc(-c2ccc3cccnc3n2)c1.COc1ccncc1.[Cl-].[Cl-].[Ru+2].c1ccc2cc3nc4c5cccnc5c5ncccc5c4nc3cc2c1; assay = cell viability; conditions = dark, normoxia 18.5 % oxygen; quantity = EC50; value = 103000 ± 3000 nM
Compound = CC(C)c1ccc(N(C)c2ccc3c(c2)OCC[C@H]3CNc2cnccc2C(=O)O)cc1; assay = cell growth or viability, ATP luminescence; conditions = 7 days; quantity = IC50; value = 5.56 nM
Compound = Cc1cccc(-c2cccc(C)n2)n1.Cc1cccc(-c2cccc(C)n2)n1.F[P-](F)(F)(F)(F)F.F[P-](F)(F)(F)(F)F.[Ru+2].c1ccc(-c2nc3c4cccnc4c4ncccc4c3[nH]2)cc1; conditions = normoxia, with: green light 523 nm, 100 J/cm2; how to read = reference: dark over light EC50; quantity = phototoxicity index; value = 4
Compound = [Cl-].[Cl-].[Ru+2].c1cnc2c(c1)ccc1cccnc12.c1cnc2c(c1)ccc1cccnc12.c1csc(-c2ccc(-c3nc4c5cccnc5c5ncccc5c4[nH]3)s2)c1; conditions = normoxia, with: visible light 100 J/cm2; how to read = reference: dark EC50 over light EC50; quantity = phototherapeutic index; value = ~200
Compound = [Cl-].[Cl-].[Ru+2].c1ccc(-c2ccccn2)nc1.c1ccc(-c2ccccn2)nc1.c1ccc2cc3nc4c5cccnc5c5ncccc5c4nc3cc2c1; conditions = light 633 nm, oxygen 1%; how to read = reference: dark EC50 over light EC50; quantity = phototherapeutic index; value = 1
Compound = Cc1ccnc(-c2cc(C)ccn2)c1.Cc1ccnc(-c2cc(C)ccn2)c1.F[P-](F)(F)(F)(F)F.[Ru+2].[c-]1cccc2c1c1ncccc1c1[nH]c(-c3ccc(-c4cccs4)s3)nc21; assay = cell growth or viability, resazurin; conditions = dark; quantity = EC50; value = 380 nM
Compound = Cc1cccc(-c2cccc(C)n2)n1.Cc1cccc(-c2cccc(C)n2)n1.F[P-](F)(F)(F)(F)F.F[P-](F)(F)(F)(F)F.[Ru+2].c1ccc2c(c1)Cc1cc(-c3nc4c5cccnc5c5ncccc5c4[nH]3)ccc1-2; assay = cell viability; conditions = normoxia, with: green light 523 nm, 100 J/cm2; quantity = EC50; value = 20800 ± 500 nM

Some of these lines once more:
Compound = CC(C)(C)c1cc(-c2ccc3cccnc3n2)nc(-c2ccc3cccnc3n2)c1.COc1ccncc1.[Cl-].[Cl-].[Ru+2].c1ccc2cc3nc4c5cccnc5c5ncccc5c4nc3cc2c1; assay = cell viability; conditions = dark, normoxia 18.5 % oxygen; quantity = EC50; value = 103000 ± 3000 nM
